{"data": "Assay results of several laboratories", "organism": "Klebsiella pneumoniae", "note": "Each line is one published result; not all experiments were run side by side. Several values in a cell are separate wells, animals, samples, runs or records. Numbers after ± are the reported error."}
{"SMILES": "N=C(N)c1cccc(OCc2ccc(COc3cccc(C(=N)N)c3)cc2)c1", "system": "ATCC 13883", "conditions": "concentration not given, together with: rifampicin", "endpoint": "MIC in combination", "result": "25 µg/mL"}
{"SMILES": "CN(C)[C@@H]1C(O)=C(C(N)=O)C(=O)[C@@]2(O)C(O)=C3C(=O)c4c(O)cccc4[C@@](C)(O)[C@H]3C[C@@H]12", "test": "broth microdilution", "system": "NCTC 13438", "scale": "baseline: 5% CO2 over ambient air", "endpoint": "MIC fold shift", "result": 0.5}
{"SMILES": "N=C(N)c1ccc(OCc2cccc(COc3ccc(C(=N)N)cc3)c2)cc1", "system": "ATCC 13883", "conditions": "concentration not given, together with: rifampicin", "endpoint": "MIC in combination", "result": "25 µg/mL"}
{"SMILES": "CNC(C)C1CCC(N)C(OC2C(N)CC(N)C(OC3OCC(C)(O)C(NC)C3O)C2O)O1 (stereo not shown)", "test": "broth microdilution", "system": "NCTC 13438", "scale": "baseline: 5% CO2 over ambient air", "endpoint": "MIC fold shift", "result": 2}
{"SMILES": "Cc1c(CN(C)C(=O)/C=C/c2cnc3c(c2)CC(NC(=O)OC(C)(C)C)C(=O)N3)oc2ccccc12 (stereo not shown)", "test": "broth microdilution", "system": "AR-0098", "endpoint": "MIC", "result": "> 32 µg/mL"}
{"SMILES": "NC[C@H]1O[C@H](O[C@H]2[C@H](O)[C@@H](O[C@H]3O[C@H](CO)[C@@H](O)[C@H](N)[C@H]3O)[C@H](N)C[C@@H]2N)[C@H](O)[C@@H](O)[C@@H]1O", "test": "bacterial growth", "conditions": "concentration not given", "endpoint": "inhibition", "result": "10%"}
{"SMILES": "C[C@H]1COc2c(N3CCN(C)CC3)c(F)cc3c(=O)c(C(=O)O)cn1c23", "system": "ATCC 27736", "conditions": "20 h", "endpoint": "MBC", "result": "0.06 µg/mL"}
{"SMILES": "CC(C)C[C@H](NC(=O)[C@H](Cc1ccc(O)cc1)NC(=O)[C@@H]1CCCN1C(=O)[C@H](CCCNC(=N)N)NC(=O)[C@@H]1CCCN1C(=O)[C@H](CCCCN)NC(=O)[C@H](CC(=O)O)NC(=O)[C@@H]1CCCN1C(=O)[C@H](CCCNC(=N)N)NC(=O)C1(N)CCCCC1)C(=O)N1CCC[C@H]1C(=O)N[C@@H](CCCNC(=N)N)C(=O)N1CCC[C@H]1C(=O)N[C@@H](CCCNC(=N)N)C(=O)N1CCC[C@H]1C(=O)N1CCC[C@H]1C(=O)N[C@@H](CCCNC(=N)N)C(=O)N1CCC[C@H]1C(=O)N[C@H](C(=O)N[C@@H](CCCNC(=N)N)C(=O)N[C@@H](CSSC[C@H](NC(=O)[C@H](CCCNC(=N)N)NC(=O)[C@@H](NC(=O)[C@@H]1CCCN1C(=O)[C@H](CCCNC(=N)N)NC(=O)[C@@H]1CCCN1C(=O)[C@@H]1CCCN1C(=O)[C@H](CCCNC(=N)N)NC(=O)[C@@H]1CCCN1C(=O)[C@H](CCCNC(=N)N)NC(=O)[C@@H]1CCCN1C(=O)[C@H](CC(C)C)NC(=O)[C@H](Cc1ccc(O)cc1)NC(=O)[C@@H]1CCCN1C(=O)[C@H](CCCNC(=N)N)NC(=O)[C@@H]1CCCN1C(=O)[C@H](CCCCN)NC(=O)[C@H](CC(=O)O)NC(=O)[C@@H]1CCCN1C(=O)[C@H](CCCNC(=N)N)NC(=O)C1(N)CCCCC1)C(C)C)C(=O)NN)C(=O)NN)C(C)C", "test": "membrane disruption, propidium iodide uptake", "system": "13883", "conditions": "90 min, 37 °C", "endpoint": "MDC", "result": "8.3 ± 0.3 µg/mL"}
{"SMILES": "C[C@@H](O)[C@H]1C(=O)N2C(C(=O)O)=C(SCCN=CN)C[C@H]12", "endpoint": "MIC90", "result": "8 µg/mL"}
{"SMILES": "C[C@@H](O)[C@H]1C(=O)N2C(C(=O)O)=C(S[C@@H]3CN[C@H](C(=O)N(C)C)C3)[C@H](C)[C@H]12", "system": "ALE, mouse, intranasal infection, lung", "conditions": "intraperitoneal, 10 mg/kg, 24 h", "endpoint": "lung bacterial load", "result": "4.13 log10 CFU/g and 4.93 log10 CFU/g and 4.79 log10 CFU/g and 4.12 log10 CFU/g and 4.94 log10 CFU/g and 5.6 log10 CFU/g and 4.34 log10 CFU/g and 4.71 log10 CFU/g"}
{"SMILES": "O=C(N[C@H](CO)[C@H](O)c1ccc([N+](=O)[O-])cc1)C(Cl)Cl", "test": "broth microdilution", "system": "NCTC 13438", "scale": "baseline: 5% CO2 over ambient air", "endpoint": "MIC fold shift", "result": 0.5}
{"SMILES": "N=C(N)c1ccc(OCc2cc(COc3ccc(C(=N)N)cc3)cc(-c3ccccc3)c2)cc1", "system": "ATCC 13883", "conditions": "concentration not given, together with: rifampicin", "endpoint": "MIC in combination", "result": "3.13 µg/mL"}
{"SMILES": "N=C(N)c1ccc(/N=N/Nc2ccc(C(=N)N)cc2)cc1", "test": "bacterial growth, OD600", "conditions": "overnight", "endpoint": "MIC90", "result": "5.85 ± 0.59 mM"}
{"note": "Repeated from above:"}
{"SMILES": "CC(C)C[C@H](NC(=O)[C@H](Cc1ccc(O)cc1)NC(=O)[C@@H]1CCCN1C(=O)[C@H](CCCNC(=N)N)NC(=O)[C@@H]1CCCN1C(=O)[C@H](CCCCN)NC(=O)[C@H](CC(=O)O)NC(=O)[C@@H]1CCCN1C(=O)[C@H](CCCNC(=N)N)NC(=O)C1(N)CCCCC1)C(=O)N1CCC[C@H]1C(=O)N[C@@H](CCCNC(=N)N)C(=O)N1CCC[C@H]1C(=O)N[C@@H](CCCNC(=N)N)C(=O)N1CCC[C@H]1C(=O)N1CCC[C@H]1C(=O)N[C@@H](CCCNC(=N)N)C(=O)N1CCC[C@H]1C(=O)N[C@H](C(=O)N[C@@H](CCCNC(=N)N)C(=O)N[C@@H](CSSC[C@H](NC(=O)[C@H](CCCNC(=N)N)NC(=O)[C@@H](NC(=O)[C@@H]1CCCN1C(=O)[C@H](CCCNC(=N)N)NC(=O)[C@@H]1CCCN1C(=O)[C@@H]1CCCN1C(=O)[C@H](CCCNC(=N)N)NC(=O)[C@@H]1CCCN1C(=O)[C@H](CCCNC(=N)N)NC(=O)[C@@H]1CCCN1C(=O)[C@H](CC(C)C)NC(=O)[C@H](Cc1ccc(O)cc1)NC(=O)[C@@H]1CCCN1C(=O)[C@H](CCCNC(=N)N)NC(=O)[C@@H]1CCCN1C(=O)[C@H](CCCCN)NC(=O)[C@H](CC(=O)O)NC(=O)[C@@H]1CCCN1C(=O)[C@H](CCCNC(=N)N)NC(=O)C1(N)CCCCC1)C(C)C)C(=O)NN)C(=O)NN)C(C)C", "test": "membrane disruption, propidium iodide uptake", "system": "13883", "conditions": "90 min, 37 °C", "endpoint": "MDC", "result": "8.3 ± 0.3 µg/mL"}
